Measured values from different studies.
Parts stem from different laboratories: compare values within a part only. “And” joins repeats or separate records; there may be more than shown. Substitutions count along the parent as printed.
Chain of UniProt Q96SW2 (whole entry, looked up): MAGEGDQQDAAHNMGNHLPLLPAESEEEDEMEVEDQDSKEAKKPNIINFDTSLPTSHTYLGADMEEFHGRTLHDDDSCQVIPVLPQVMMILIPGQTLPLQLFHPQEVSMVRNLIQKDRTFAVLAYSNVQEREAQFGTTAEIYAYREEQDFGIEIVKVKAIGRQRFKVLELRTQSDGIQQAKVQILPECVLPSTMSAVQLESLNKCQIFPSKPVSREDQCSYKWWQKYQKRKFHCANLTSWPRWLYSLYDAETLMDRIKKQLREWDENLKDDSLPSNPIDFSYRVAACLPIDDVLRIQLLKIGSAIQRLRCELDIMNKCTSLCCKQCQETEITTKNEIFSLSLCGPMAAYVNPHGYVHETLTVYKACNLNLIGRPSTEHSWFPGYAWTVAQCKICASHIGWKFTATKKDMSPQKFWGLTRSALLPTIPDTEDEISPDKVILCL
Chain of UniProt Q9UKS7 (whole entry, looked up): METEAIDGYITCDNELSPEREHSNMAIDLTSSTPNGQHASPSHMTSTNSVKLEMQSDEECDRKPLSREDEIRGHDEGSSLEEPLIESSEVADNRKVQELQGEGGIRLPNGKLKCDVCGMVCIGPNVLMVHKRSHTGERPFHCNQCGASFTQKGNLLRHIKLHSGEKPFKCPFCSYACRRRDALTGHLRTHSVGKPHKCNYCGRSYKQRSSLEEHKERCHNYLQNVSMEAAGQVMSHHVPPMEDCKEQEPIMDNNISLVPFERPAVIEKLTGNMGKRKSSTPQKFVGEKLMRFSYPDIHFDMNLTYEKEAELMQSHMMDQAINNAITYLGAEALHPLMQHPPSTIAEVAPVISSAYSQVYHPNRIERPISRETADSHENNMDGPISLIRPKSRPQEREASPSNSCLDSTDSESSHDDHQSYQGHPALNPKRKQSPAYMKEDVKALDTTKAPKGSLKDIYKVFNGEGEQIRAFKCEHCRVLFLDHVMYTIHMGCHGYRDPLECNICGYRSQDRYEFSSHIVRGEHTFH
Chain of UniProt O75417 (whole entry, unmodified, looked up): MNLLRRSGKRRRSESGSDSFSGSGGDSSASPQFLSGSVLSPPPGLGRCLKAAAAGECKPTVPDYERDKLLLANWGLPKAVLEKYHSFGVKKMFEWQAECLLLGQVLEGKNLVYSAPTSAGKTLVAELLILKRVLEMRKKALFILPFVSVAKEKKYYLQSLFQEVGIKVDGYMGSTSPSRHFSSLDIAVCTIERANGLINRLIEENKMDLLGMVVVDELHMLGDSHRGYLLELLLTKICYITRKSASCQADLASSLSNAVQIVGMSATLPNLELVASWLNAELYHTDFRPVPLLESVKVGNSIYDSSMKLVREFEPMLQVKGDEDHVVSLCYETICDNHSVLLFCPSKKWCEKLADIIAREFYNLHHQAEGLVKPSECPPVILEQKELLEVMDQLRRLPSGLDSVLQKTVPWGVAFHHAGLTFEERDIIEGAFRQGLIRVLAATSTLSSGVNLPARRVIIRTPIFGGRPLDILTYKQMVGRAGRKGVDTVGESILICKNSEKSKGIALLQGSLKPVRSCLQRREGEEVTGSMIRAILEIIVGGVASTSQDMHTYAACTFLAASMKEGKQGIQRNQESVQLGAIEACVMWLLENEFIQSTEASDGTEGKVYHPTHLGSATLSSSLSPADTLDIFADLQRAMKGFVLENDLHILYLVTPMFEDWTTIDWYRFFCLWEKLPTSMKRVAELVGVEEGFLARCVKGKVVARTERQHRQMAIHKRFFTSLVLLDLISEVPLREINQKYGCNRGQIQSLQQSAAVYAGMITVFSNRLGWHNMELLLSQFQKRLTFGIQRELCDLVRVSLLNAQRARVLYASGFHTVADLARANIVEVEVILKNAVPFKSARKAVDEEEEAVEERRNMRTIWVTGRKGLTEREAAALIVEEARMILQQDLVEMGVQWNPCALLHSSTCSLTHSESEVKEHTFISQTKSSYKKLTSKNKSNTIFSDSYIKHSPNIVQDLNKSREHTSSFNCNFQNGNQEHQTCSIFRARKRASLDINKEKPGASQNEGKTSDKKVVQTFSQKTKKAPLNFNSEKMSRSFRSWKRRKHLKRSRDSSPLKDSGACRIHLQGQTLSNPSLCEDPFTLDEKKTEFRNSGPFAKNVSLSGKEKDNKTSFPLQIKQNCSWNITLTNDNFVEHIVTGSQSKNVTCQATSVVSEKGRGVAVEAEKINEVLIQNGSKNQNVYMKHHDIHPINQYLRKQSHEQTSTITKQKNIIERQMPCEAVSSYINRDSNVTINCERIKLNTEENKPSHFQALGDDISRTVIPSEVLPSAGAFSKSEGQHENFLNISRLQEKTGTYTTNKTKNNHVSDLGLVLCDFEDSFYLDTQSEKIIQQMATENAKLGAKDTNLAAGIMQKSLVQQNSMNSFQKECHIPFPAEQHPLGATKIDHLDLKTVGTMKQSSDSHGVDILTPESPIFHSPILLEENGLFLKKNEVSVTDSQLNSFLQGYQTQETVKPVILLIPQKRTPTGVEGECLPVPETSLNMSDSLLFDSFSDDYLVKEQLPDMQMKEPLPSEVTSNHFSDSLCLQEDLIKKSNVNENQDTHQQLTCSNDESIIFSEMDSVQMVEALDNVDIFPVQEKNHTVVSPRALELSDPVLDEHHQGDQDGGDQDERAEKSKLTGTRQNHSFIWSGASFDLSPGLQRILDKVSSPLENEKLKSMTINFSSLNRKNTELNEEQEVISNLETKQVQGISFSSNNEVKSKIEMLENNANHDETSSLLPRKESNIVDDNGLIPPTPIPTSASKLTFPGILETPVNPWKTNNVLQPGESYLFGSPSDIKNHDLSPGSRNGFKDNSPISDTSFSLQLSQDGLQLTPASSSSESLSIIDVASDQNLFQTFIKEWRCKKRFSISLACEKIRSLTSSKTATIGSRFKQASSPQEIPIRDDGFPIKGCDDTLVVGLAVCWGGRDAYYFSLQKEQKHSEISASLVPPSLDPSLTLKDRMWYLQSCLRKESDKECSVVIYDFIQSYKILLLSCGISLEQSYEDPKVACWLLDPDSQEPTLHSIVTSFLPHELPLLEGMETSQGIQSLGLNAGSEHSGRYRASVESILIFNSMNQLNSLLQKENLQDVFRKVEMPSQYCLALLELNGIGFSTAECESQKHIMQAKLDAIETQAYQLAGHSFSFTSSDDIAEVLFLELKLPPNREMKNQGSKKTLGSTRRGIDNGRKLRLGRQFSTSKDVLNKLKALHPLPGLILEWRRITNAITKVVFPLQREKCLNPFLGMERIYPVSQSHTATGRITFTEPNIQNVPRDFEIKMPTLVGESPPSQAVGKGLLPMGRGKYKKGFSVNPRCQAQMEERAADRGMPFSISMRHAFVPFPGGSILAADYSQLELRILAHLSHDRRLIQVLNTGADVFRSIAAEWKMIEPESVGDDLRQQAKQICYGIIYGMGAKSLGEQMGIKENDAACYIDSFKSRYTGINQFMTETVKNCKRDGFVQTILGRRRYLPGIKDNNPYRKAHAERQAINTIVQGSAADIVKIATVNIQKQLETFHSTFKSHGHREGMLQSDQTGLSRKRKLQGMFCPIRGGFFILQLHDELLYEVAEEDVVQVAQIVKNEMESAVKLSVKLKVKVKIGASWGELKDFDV

Block 1
Target: CCNB3, cyclin fold, Cln2 fusion (human)
Method: yeast growth competition, sequencing
Medium: yeast
Setting: strong parent motif
Reference: not given
Reading: higher = stronger binding
Starting sequence: viral docking peptide; KKAKRRLFTISDS; partner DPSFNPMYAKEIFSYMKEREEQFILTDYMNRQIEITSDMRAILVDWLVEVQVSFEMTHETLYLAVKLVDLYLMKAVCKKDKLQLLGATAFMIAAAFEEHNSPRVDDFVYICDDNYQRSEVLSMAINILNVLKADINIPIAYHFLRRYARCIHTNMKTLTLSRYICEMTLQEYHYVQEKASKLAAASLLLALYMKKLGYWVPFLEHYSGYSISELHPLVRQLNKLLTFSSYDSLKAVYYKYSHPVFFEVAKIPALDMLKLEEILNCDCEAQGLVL
| Variant | normalised enrichment score |
| --- | --- |
| KKAKRRLFTASDS [I10A] | 0.208 |
| KKAKRRLFAISDS [T9A] | 0.631 |
| KKAKARAFTISDS [R5A L7A] | -0.221 |
| AKAKRRLFTISDS [K1A] | 0.417 |
| KKAKKRLLTISDS [R5K F8L] | 0.154 |

Block 2
Compound: CC[C@H](C)c1nc2cc(Nc3ccnc4ccc(S(=O)(=O)C(C)C)cc34)ccc2s1.Cl
Cell line: HT-29
Read-out: necroptosis protection
Method: CCK-8
With: TNF-α SMAC mimetic zVAD
| tested at | viability |
| --- | --- |
| 2.5 µM | 28% and 78.7% and 71.2% and 38.9% |
| 0.313 µM | 18.8% and 12.1% and 12.4% and 19.3% |
| 10 µM | 77.5% and 77.4% and 92.5% and 95.3% and 76.6% |

Other studies, line by line
| Substance | target | assay | system | setting | scale | measurement | result |
| --- | --- | --- | --- | --- | --- | --- | --- |
| merbromin | DNA polymerase theta, ATPase domain (POLQ, Homo sapiens, UniProt O75417) | ATPase activity, inhibitor, ADP-Glo |  | 77 µM, replicate A | direction not given | Z-score | -6.49 |
| O=C1CCC(N2Cc3c(ccc4c3OCC43CCN(Cc4ccccc4)C3)C2=O)C(=O)N1 (stereo not shown) | CRBN/Zinc finger protein Helios (Homo sapiens, UniProt Q96SW2+Q9UKS7) | degrader, HiBiT | HEK293 | 370.37 nM |  | protein remaining | 73.7% |

Some of these lines once more (other studies, line by line):
| Substance | target | assay | system | setting | scale | measurement | result |
| --- | --- | --- | --- | --- | --- | --- | --- |
| O=C1CCC(N2Cc3c(ccc4c3OCC43CCN(Cc4ccccc4)C3)C2=O)C(=O)N1 (stereo not shown) | CRBN/Zinc finger protein Helios (Homo sapiens, UniProt Q96SW2+Q9UKS7) | degrader, HiBiT | HEK293 | 370.37 nM |  | protein remaining | 73.7% |
